Experimental data from different studies.
Every numbered part comes from another study and shows a few of its results, in no order.

Sample 1 — technique: protein binding microarray; molecule type: double-stranded DNA, one strand shown; sample: in vitro; concentration: not given; reference: not given; direction: higher = stronger binding
Target: Histone acetyltransferase KAT6A, winged helix 1, GST fusion (KAT6A, Homo sapiens, UniProt Q92794, residues 1-85)
Notes: 8-mer, flanks averaged, mean of 2 arrays, mostly near background
Target sequence (chain): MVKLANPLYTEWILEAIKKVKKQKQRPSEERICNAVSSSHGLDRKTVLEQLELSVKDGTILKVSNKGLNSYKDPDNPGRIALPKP
Sequence	E-score
AGAACACA	-0.309
AAATAGAA	-0.16
TCATCTCA	-0.22
ACCGGTCC	0.227
ATTATGGC	0.00713
CCTAGGCA	-0.215
CCCTCCGG	0.0532
AATATATA	0.00985
AAGATCCG	0.0626
AGCGACTG	0.0314
GACACCAA	-0.134
AAGGTCTC	0.0196
CATTGCCG	0.285
ATCTGGAG	-0.197
TATAACAA	-0.147
CCCGTCAA	0.293
ACGCAGCA	0.0255
ACTGCCAT	-0.16
ACTATCAG	-0.158
CGGTGTAG	0.197
AAATAGTC	0.0004
CTCGCCAA	-0.0426
CCAGTAAG	-0.153
AGTAGTGC	0.147

Sample 2 — technique: RNA Bind-n-Seq; molecule type: RNA; sample: in vitro; concentration: 365 nM; reference: no-protein control; direction: higher = stronger binding
Target: RNA binding protein fox-1 homolog 2, RRM domain, GST-SBP tag (RBFOX2, Homo sapiens, UniProt O43251-10, residues 100-194)
Notes: natural RNA segment, single round, ends assumed
All sequences stand within: GGGAGUUCUACAGUCCGACGAUC … UGGAAUUCUCGGGUGCCAA
Residues (chain): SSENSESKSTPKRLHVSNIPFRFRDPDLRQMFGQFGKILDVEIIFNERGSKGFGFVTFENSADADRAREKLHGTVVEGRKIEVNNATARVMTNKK
Sequence	RBNS enrichment (R)
UGCUCUGCCAGUGUUCAGUAUCAGUGGCUGAAUUAUGGAUAAGAACUGUAGAGAAUCUUCUGUUUAGUCCGUGCUUUUUAUGUAGAAUUGGUUUUAUCUAAUAGUUUUAC	0.279
AGAAAUACCUGACUCCUGUACCACAGUCCAGUUUGUCCCAGUAGCAGGGACACCAAGGCCAAUGGGUUAUCUGGACCAAAGGUGGGGUGGAGGGCCUAGGUGGUAUCUCC	0.334
UCUGCCUUCCAGGUUGAAGAGGUUCUCCUGCCUCAGCCUCCUUAGUAGUGGGAUUACAGGUGCCCGCUACUAUGCCCGGCUAAUUUUUCUUUUGGUAUUUUUAGUAGAAA	0.46
ACCUCUGCACUGAACUUCCUAUAAGUAACUUCCACCACACUGGUUUCUACUCUCAGAACUGCCCCAGUGCUUGCUGGGUAGACUUUUCAUCUAAGACAGUGGAUUUUUCA	0.403
AAUUGCUAUGUUCUCAUGGAUAAACUUUGCCAGCAAAAAUCAGGCUUUUGAACAAUUUUAAUUUUUUGCCUCAUAAAUUUUGUGAAUGCUAUUCAUUAUAGGGCUUGUAU	0.895
GAGCCACCUUCCCAUCCCAGCACCAGAGACUGCAGUUUCCCUCAGUCCUCCACCCUCCCACUGCCGCCACCCCUACUGCUGCAGGCUCACAGACCUCAGUCAUGUGAUAA	0.767
UGCAGAUGGAUCCCAGAACCUGCAGCUACCACGGACACCAGGAGGCCCUCGGGCCACUUGGUGGAAGGACCCUAAGCACACUGUUCAUGAAGAACACAGGGAUAAAGCAA	0.327
UAAUUAAAAUUCUGUUGAAGAAGAUAAAGUUUCAGAUAUGCCACUGGCUUGAGGAUUAGCUAAAGGUCUGUGUUUUCACAGCAGGAGUUAAUGUGCAGAGUUAACUGAAC	0.484
UCACUCUGCUGUCAGGUACAGGUCAAGUUCUUGGGGCCCACUUCUGAGUUUAGAAGACCUAUUACAAAAAGUGAAGAACUAGACUGUGGGAAAAUAAAUGGCUUUUGACU	0.354
UGGCACUCUCAUGUUGGAACUUCUUUUGGGCUCAUGCUCAGGCCUUUUUUGGAUCACUAAGGACUAUGACCUCUGAGUAACCUGAUGACCUGAGAAAGAGUAAGGAGGCC	0.39
AGAAAGUACAGCUACUGUGCCUUGUGUUACUUAUUUACACAGUUAGCAGGCCUGGAAAUGAAUGGAACUAGUACUCCUGAGAAAUAAAUUGUAUAUCCCCCAAAUUAAAA	0.847
AGAUAUAUUUAAAUAUUUUAGAGAAAUUUAAGUUACUCCUUAUGAAAUGUUUAAUUUCAGUUACUGUGAAUUCUUCUAAUCAGUUCGUUCUUUGAUUUUAAAAAGAAAAA	0.886

Sample 3 — technique: aptamer microarray, sandwich; molecule type: DNA with 2'F-ANA; sample: in vitro; concentration: 200 nM; added: Cy3 exosite-II aptamer, 400 nM; direction: higher = stronger binding; sequence: GGTTGGTGTGGTTGG
Target: Prothrombin, mature alpha-thrombin (F2, Homo sapiens, UniProt P00734)
Notes: whole 15-mer aptamer, many near background
Modification	mean fluorescence intensity
2'F-ANA at 2 3 6 7 8 11 12 15	817 a.u.
2'F-ANA at 1 6 8 10 11 12 13 14 15	49 a.u.
2'F-ANA at 1 5 6 7 10 11 12 13 15	46.9 a.u.
2'F-ANA at 1 5 6 7 9 10 14 15	50.8 a.u.
2'F-ANA at 2 3 4 5 6 7 11 12 15	130 a.u.
2'F-ANA at 1 5 6 7 8 9 10 11 14 15	50.8 a.u.
2'F-ANA at 1 2 3 6 9 10 12 14 15	51.4 a.u.
2'F-ANA at 1 3 4 6 7 9 10 11	60.9 a.u.
2'F-ANA at 1 4 5 6 7 11 14 15	49.3 a.u.
2'F-ANA at 4 6 10 11 12	176 a.u.
2'F-ANA at 3 5 6 8 13 14 15	55.9 a.u.
2'F-ANA at 1 3 5 10 11 14 15	55.5 a.u.
2'F-ANA at 1 2 3 4 5 8 9 10 12 13 14	46.1 a.u.
2'F-ANA at 2 3 4 7 9 10 14 15	180 a.u.
2'F-ANA at 3 4 7 10 13 14	246 a.u.
2'F-ANA at 1 2 3 4 5 8 11 12 14	48.2 a.u.
2'F-ANA at 1 4 8 13	119 a.u.
2'F-ANA at 4 5 7 12 13	111 a.u.

Sample 4 — technique: RNA Bind-n-Seq; molecule type: RNA; sample: in vitro; concentration: not given; reference: input RNA pool; direction: higher = stronger binding
Target: RING finger protein unkempt homolog, zinc fingers 1-6, GST-SBP tag (UNK, Homo sapiens, UniProt Q9C0B0, residues 30-357)
Sequence of UniProt Q9C0B0 (30-357, looked up): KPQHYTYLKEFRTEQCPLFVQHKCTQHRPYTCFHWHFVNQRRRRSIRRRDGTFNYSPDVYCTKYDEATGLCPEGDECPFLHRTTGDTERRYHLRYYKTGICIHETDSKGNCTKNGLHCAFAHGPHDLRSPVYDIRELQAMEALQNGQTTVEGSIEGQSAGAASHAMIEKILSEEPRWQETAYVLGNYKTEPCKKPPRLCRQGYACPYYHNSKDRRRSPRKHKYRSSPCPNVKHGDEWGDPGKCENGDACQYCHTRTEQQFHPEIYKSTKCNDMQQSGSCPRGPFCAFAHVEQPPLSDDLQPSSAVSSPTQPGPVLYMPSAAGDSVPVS
Notes: RNA with constant flanks, human-mouse chimeric sites, ends assumed
All sequences stand within: GGGAGUUCUACAGUCCGACGAUC … CAACAGAGGAUUGAGCAUCA
Sequence	bound/input enrichment [ratio]
CACAGAGCAGCACCUACCCCCUCCUCCUUUCCACACCUGCAAACUCUUUUACUUGGGCUGAAUAUUUAGUGUUAAUUACAUCGCAGCUUGAGGGCUCCUGUGGCAAAUUCCCGGAUUAAA	1.19
AGAUUCCCCCUCCUGAGACCUCCUCCGAAGUUGGAGUCUCUUAUAGAUGCCUCAUCCCCUGUUAGCGUUUUAGUUUGGACCACCCAGCCUUGGACGAUUCCCGCCAACCAGGCAAUUUGC	0.947
GUUCGGCUUUGGGAUCAUGCCACAAUGACAGAAGUGAAAUCUCUGAAUUUUAAUAUGUCUGUUAGCAGCAUGGAGUAUAUUCCUGAGGGAGAGAUUUUGGUUAUUACUUAUGGACGAUCU	0.52
UCUGGUCAUACUCGUGCGUAUGGUGUUUGCUUUGUUGACACUUCACUGGGCAAGUUUUUCAUCGGCCAGUUUUCGGAUGACCGCCACUGUUCCAGAUUUAGGACGCUAGUGGCUCACUAU	0.269
AGAAUCUUGGGACUGUUUUGCUUGAUUGGUCAUUGAUAGCUUAACAAACAUGGAGAUAAGAUUAGAAAUCUUGACAUCAACAGGUAUCAAGCAGAAAAAACCAUGGCCACGUGUCUCCUG	0.126
CGCUUGGAUGAGGCGGGUGUCACAGAUGAAGUGCUAGAUUCUGCCAUGCAAGCCUUCUUACUAGAAAUCAUUGUUAAACAUGGGGAGCCGGCACCUUAUUUAUGUAAUAAAGAUCCUUUU	0.284
GUGUCCUUUCAACUUAAUAAAUCACUGAGGCAUCUCUACUAUUCUGUGAGCAUCAGGACUGUAGCGCUGUGUCACCACAUGAGAGUUCAGAAGCAGCCUUUCUGUGGAGGGUGGGAAUGA	0.31
UAAGUUAAGCUUUUAAUCUUUGUAAAUUCUUAACAUUUUUAUAUUGCCAUGUUUAUUUUGUUUGGGUAAUUUGGUUCAUUAAGUACAUAGCUAAGGUACAUCUUUCAUUUUUCAGUAAUU	1.28
AUCAAAUACUUUGGGGAUAUUAUUAGCGUGGGACAGAGACUGUUGCAAGGAGCUCGGAUCUUAGGGAUUCCAGUUAUCAUAACGGAACAAUACCCCAAAGGUCUUGGCAGCACCGUUCAA	0.268
CUCAGAGAUGUGGCAUAUCAGUAUGUGAAAAAGGGGGCUCGUAUAUUUGUGGAAGGGAAAGUGGACUAUGGCGAGUACAUGGAUAAAAACAAUGUGAGGCGACAAGCAACAACAAUCAUA	0.335
CUGUGACCACAAGAUCCUACCUGAGUGGCAGCUGAAGUUGACUCCCUCUCCUUGCCUGAACCCCCCCCUUUUGUUCCUUGAGUCCACAGUGUCGGCUGAGAUGUUGCCUCUGCACGGUUC	1

Repeated from above (sample 1):
Sequence	E-score
AGCGACTG	0.0314
GACACCAA	-0.134
AAGGTCTC	0.0196
CATTGCCG	0.285
ATCTGGAG	-0.197
TATAACAA	-0.147
CCCGTCAA	0.293
ACGCAGCA	0.0255
ACTGCCAT	-0.16
ACTATCAG	-0.158
